Published values pooled from the literature.
Parts stem from different laboratories: compare values within a part only.

Block 1
Target: Histone acetyltransferase KAT6A, both winged helices, GST fusion (KAT6A, Homo sapiens, UniProt Q92794, residues 1-181)
Method: protein binding microarray
Form: double-stranded DNA, one strand shown
Matrix: in vitro
Concentration: not given
Notes: 8-mer, flanks averaged, mean of 2 arrays, mostly near background
Reference: not given
Direction: higher = stronger binding
Endpoint: E-score
Residues (chain): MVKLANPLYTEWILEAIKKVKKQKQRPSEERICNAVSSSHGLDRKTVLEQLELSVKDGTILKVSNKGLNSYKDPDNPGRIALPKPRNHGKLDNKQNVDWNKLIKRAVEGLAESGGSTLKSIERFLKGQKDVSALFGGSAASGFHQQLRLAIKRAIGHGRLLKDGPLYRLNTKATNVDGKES
AAAGCGAA: 0.152
AGATAGAA: -0.186
ACATTGCT: -0.122
CAGAAGCC: -0.0167
ACCATAGA: -0.118
AAGGCCAG: -0.11
GGGTAACA: -0.0459
CGAGCAAC: 0.0795
CGGTTTAA: 0.181
AAGGCAAT: -0.198
CCCTAGCA: -0.171
GATAACGA: -0.145
GCCGGCCA: 0.255
CACGAGTG: -0.111
GAGAGATA: -0.0516
ACATAACA: -0.0379
CACGAAGG: -0.0164
GCTTCAAC: -0.0133
GGTTCCAA: 0.0888
CACTTTCG: -0.0564
ATTATCAC: -0.0199

Block 2
Target: Centromere-binding protein 1, full length, N-terminal tag (CBF1, Saccharomyces cerevisiae, UniProt P17106, residues 1-351)
Chain of UniProt P17106 (whole entry, looked up): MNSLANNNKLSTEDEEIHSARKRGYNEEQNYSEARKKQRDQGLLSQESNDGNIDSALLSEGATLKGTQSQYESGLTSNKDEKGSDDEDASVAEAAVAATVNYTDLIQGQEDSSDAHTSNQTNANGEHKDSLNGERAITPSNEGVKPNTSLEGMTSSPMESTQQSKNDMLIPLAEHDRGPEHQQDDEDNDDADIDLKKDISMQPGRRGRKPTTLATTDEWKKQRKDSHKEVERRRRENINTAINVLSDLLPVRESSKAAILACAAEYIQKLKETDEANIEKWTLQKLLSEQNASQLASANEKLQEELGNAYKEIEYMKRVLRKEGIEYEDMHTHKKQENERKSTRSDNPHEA
Method: protein-binding microarray
Form: double-stranded DNA, one strand shown
Matrix: in vitro
Concentration: 0.8 µM
Notes: whole 60-bp probe, no competitor
Direction: higher = stronger binding
Endpoint: fluorescence intensity
All sequences stand within: … GTCTTGATTCGCTTGACGCTGCTG
CTAAGAAACTGCAGCATCATGATGTTCCTAGACTTC: 482 a.u.
GAACTTGGAATGTGTCACGTTGGGCATTTTTAATAG: 1640 a.u.
CTAACATTCGTCAAAGTCACGAGGAACCTTGACTTC: 2120 a.u.
GAATTTTTCCCACACGTGCTTATGGGCCGCATTTAG: 7730 a.u.
GAATGTGGAGTATCTGATGTAACACTGTAGTCTTAG: 504 a.u.
GAAACTTGAATATACCACATGAAAGCTAACCAATAG: 554 a.u.
GAAATCCGAGCTTGTCACCTTTAACTTACGTTTTAG: 514 a.u.
CTAACATGACTGGACGGTGATGCAGTAGCTGTTTTC: 516 a.u.
GAATGTATGGTGCGTCACCTTCTTTTTTTTAGTTAG: 510 a.u.
GAAGTGCATTGTGTGATCATGCAGCTACCATAGTAG: 635 a.u.
CTATGGAAGAAAATGGACGTGACGAATCAATAATTC: 627 a.u.
GAAAATACATTATCATACATGATGCAAAAATACTAG: 550 a.u.
TGTACGAAGCTATGTAGTGTGACTATAGTAGTTAGG: 591 a.u.
TGTACGAAGCTATAGACCGTGCCTATAGTAGTTAGG: 559 a.u.
GAATTTCTTATTGCTTACACCTGATAATCATCCTAG: 754 a.u.
CTATTCTCTGTTCGTCATATGATAACTTAAGCATTC: 1030 a.u.
GAATTCTATCCTAACCACCACCTCAAAAAAAAATAG: 623 a.u.
CTAAAAGCTTGATAGAGGGTGACATTTGCTAGATTC: 491 a.u.
TGTACGAAGCTATCACGTGGCACTATAGTAGTTAGG: 9250 a.u.
CTATTTCGTTCGTGCAGCGTGATTAACCGAGCCTTC: 842 a.u.
CTAGCTCAACTTCATCACGTCCTTGGTTTTTACTTC: 596 a.u.
GAAATTTTTTGCATCCATGATCACTGTTGGTAATAG: 569 a.u.

Block 3
Target: RING finger protein unkempt homolog, zinc fingers 1-6, SBP tag (UNK, Homo sapiens, UniProt Q9C0B0, residues 30-357)
Chain of UniProt Q9C0B0 (30-357, looked up): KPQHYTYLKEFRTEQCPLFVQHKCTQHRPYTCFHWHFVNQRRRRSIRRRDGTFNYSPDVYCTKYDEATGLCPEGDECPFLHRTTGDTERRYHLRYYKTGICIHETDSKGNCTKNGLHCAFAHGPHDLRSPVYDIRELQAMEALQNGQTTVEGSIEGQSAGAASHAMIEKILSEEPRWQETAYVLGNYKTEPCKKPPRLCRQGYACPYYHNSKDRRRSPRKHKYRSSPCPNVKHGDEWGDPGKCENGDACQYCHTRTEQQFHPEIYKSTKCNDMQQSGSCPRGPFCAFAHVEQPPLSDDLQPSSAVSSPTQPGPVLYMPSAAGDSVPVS
Method: RNA Bind-n-Seq
Form: RNA
Matrix: in vitro
Concentration: 100 nM
Notes: RNA with constant flanks, vertebrate orthologous sites, ends assumed
Reference: input RNA pool
Direction: higher = stronger binding
Endpoint: bound/input enrichment
All sequences stand within: GGGAGUUCUACAGUCCGACGAUC … CAACAGAGGAUUGAGCAUCA
GUGACUUUGGACGUCCGCUCAGCCGGGUUGCAGAAGCUGUUUGGUGCCUGUCGUGCGCUCGUUCUCCCGUCUCUGGAGGUAGGCCUCUGCCGCAAACAUGCUCCGCCAGAUCCUCGGGCA: 0.341 ratio
AGGGAGAAGAGCUCACAAACUCAAAGGAGAACUAGGAAAGAGUUUCUAAUAGUUAAAAGCUAGGAAAGAUUAGGACAACUUUACAAAUGAGCAAUUAAAAAAAAAAGGAUAUGGAAACUA: 0.864 ratio
AGCAACCCAAGGAUUCAGGACUGGUUUUACAAAUAUGCCAAGUCGGUAUGGAACUAACAAUAGAAUUGGACAACCAAGACCAUGAUGUACUGUAAUUUAAUUUAUUUUUAUGAGGAAUAU: 0.948 ratio
AGCUCUAGUUCUUAACAACCAACACUCCUAAGAGAUUUAGAAAAAGUUUACAACAGAAUCUAGUUUACAAAGAAGUCUUGUGCUAGAAUACUUUUUAAAAGUAUUUUUGAAUACCAUUAA: 0.535 ratio
UUGUACUACAAAAAAUCAUCCUAGUUUUUUAAGCUAACUACAGUGAUAACUAGUCUGUGCUAGUAGAAUCAUUUACUAUUACUUUUUAAAUUAUCUGCUUUGUCUGAUACCUGAAACCAC: 0.945 ratio
CCCUCUGAACCCCAUAUCUUCUGUUUCAUAAUGCAGAAGUAUUCUUUUCAAUUAUAUCAUUAGUGGACUUGUUUUAAUUUUAGAGAAACUUUGAGUACAGAUACUGUGAGCUUACAUGGA: 2.39 ratio
GUGUUGGUGCAGAGUGCUCUGUACCAGUGCUCAUCAUCCCUUCUUCAUACCAAUUGUCCCUAGUUAUAGGAAUUUAAUAUUUUUAAAAGUUUUACAUUGCUGUAUAUUCAAAGAUUUGUU: 0.886 ratio
UGAAAAUAGCUUCUGCUCCAUUGAGAGUAAAAAUAGUCCCAUGAAUAGAAAACUCCUAAUGAACUAUUUUUUAAAUAAAAAACGUUAAAUUUUGUAAAUCACCUGCUGCCACAAUACAAC: 0.868 ratio
ACUGUUGUUAAGCACUGUGUUCCAGACCGUGUCUGACUUAGUGUAACCUAGGAGAUUUUAUAGUUUUAUUUUAAUGAAACCCUGAUUGACGCACAGCAGUGGGGAGAACAGCGUCUUUUA: 2.19 ratio
CAUUUAGAGUCGGAAUAAAUGGCUCCAGGAUUCACGACAUCGUUCUGUGGGAUCAGACUGCAGGACGGAGACUCUCUUUAAAUUUAUAUGCUGUUUCCAAACUUACGUUGGAAGACGUUU: 0.465 ratio
UCCUCAACUUGUUCUAGCUUGUGAUCCUUCAAAAUUGGGUCAGGCAUUAUUGCUAGGUACUAGAAAUUUUGCAUUUCUCUAUUGCCAUUGAUCAGAGAGACAGACAUUAAAACAGGAAUA: 0.445 ratio

Block 4
Organism: Saccharomyces cerevisiae
Read-out: binding
Method: yeast competitive growth sequencing
Form: peptide
Strain: cyclin D1-Cln2 strain
Matrix: peptide tiling library
Notes: pooled screen
Direction: direction not given
Endpoint: enrichment score
NARRSLNFGGSTGT: -0.0866
AIRKMREDRWAVIAKM: -1.24
NRLLKLFTRCLTPLVP: -2.02
EAAPPTQEAQGETEPT: 0.244
VRDLSYRLVFLACCVA: -0.9
VKTKKRLNFDDK: -0.377
RNRGPKLNAMLRLGVL: -3.33
IFNKPECGRVQRAIFQ: -1.56
HRRRLLFACSPPPASQ: -1.59
RRRRLLFWDKETQI: -2.34
RRRIKLPESDSSED: 1.98

Block 5
Target: Ras GTPase-activating protein-binding protein 1, RRM domain (G3BP1, Homo sapiens, UniProt Q13283)
Chain of UniProt Q13283 (whole entry, looked up): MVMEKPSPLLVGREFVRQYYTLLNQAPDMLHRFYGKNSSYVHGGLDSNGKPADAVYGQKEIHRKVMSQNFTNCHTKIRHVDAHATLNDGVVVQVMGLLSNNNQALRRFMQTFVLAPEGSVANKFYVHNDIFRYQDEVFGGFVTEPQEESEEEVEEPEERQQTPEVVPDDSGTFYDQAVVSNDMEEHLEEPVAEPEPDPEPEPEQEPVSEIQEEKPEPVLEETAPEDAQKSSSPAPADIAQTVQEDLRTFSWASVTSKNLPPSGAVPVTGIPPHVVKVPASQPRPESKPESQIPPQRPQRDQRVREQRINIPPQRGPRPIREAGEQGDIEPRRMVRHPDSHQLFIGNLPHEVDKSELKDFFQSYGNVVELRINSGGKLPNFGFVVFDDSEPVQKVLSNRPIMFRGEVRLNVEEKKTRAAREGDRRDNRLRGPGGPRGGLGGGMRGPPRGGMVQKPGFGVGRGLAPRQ
Method: RNA Bind-n-Seq
Form: RNA
Matrix: in vitro
Concentration: 1 µM
Notes: whole 134-nt RNA, ends assumed
Added: 150 mM KCl
Reference: input library
Direction: higher = stronger binding
Endpoint: log2 enrichment
All sequences stand within: GGGAGUUCUACAGUCCGACGAUC … UGGAAUUCUCGGGUGUCAAGG
CAAGUCCUGUGCUACACAUCGUAUGUACCGAAUCGGAAAGGAAAAAGGAAAAAGGAAAGUAUUAUGUUACGCCGUUCGGAUCUGCACUUC: -0.0656
AAGUCCUGUGCUACACAUCGUAUGUACCGAAUCGGAAAAAAAGGUUUUUUUGGAGGAAAGUAUUAUGUUACGCCGUUCGGAUCUGCACUU: -0.334
AAGUCCUGUGCUACACAUCGUAUGUACCGAAUCGGAAAAAGGUUUUUUUGGAAAGGAAAGUAUUAUGUUACGCCGUUCGGAUCUGCACUU: -0.364
CAAGUCCUGUGCUACACAUCGUAUGUACCGAAUCGGGUUUGGGGUUUGGUUUGGGGAAAGUAUUAUGUUACGCCGUUCGGAUCUGCACUU: -0.239
CCUGUGCUACACAUCGUAUGUACCGAAUCAAACCCCCCCAAACCCCCAAAUUUUUUUAAAAAAGUAUUAUGUUACGCCGUUCGGAUCUGC: -0.434
UAACUUUAGAGGAGGAUCUGAUGGAUAUGGCAGUGGACGUGGAUUUGGUGAUGGCUAUAAUGGGUAUGGAGGAGGACCUGGAGGUGGCAA: -0.625
AAGUCCUGUGCUACACAUCGUAUGUACCGAAUCGGAAAAGGAAAAGGGGAAAAGGGGAAAGUAUUAUGUUACGCCGUUCGGAUCUGCACU: -0.0343
CCUCAAGUCCUGUGCUACACAUCGUAUGUACCGAAUCGGGGUGGUGGGUGGGAAAGUAUUAUGUUACGCCGUUCGGAUCUGCACUUCCAG: 0.166
UGUCUGCGGACCUGGUUUCAGCGCUGGUGGGACUGCAGCCGGAGGUCAGCCCAGCAGAGACUGCAGCUGGAGAGGGCAGUGCAACACCAC: -0.448
GCAGGAAGUAAAAACAAAUGGAAAUGCUUCGGAUAGUGGCAGGGGUGGGGGUUGCUAAAAAAAGGGUGGGAUGGGAGUGGGUAAAGAGUU: 1.55
GCAGGAAGUAAAAACAAAUGGAAAUGCUUCGGAUAGUGGCAGGGGUGGGGGUAAAUAAGGAAAGGGUGGGAUGGGAGUGGGUAAAGAGUU: 0.847
UGGGAGGUGGAUUUUGUUUAUUUUUUUAGCUCAUUUCCAGGGGUGGGAAUUUUUUUUUAAUAUGUGUCAUGAAUAAAGUUGUUUUUGAGA: 1.45
GCAGGAAGUAGAAACAAAUGGAAAUGCUUCGGAUAGUGGCAGGGGUGGGGGUUGCUAAGGAAAGGGUGGGAUGGGAGUGGGUAAAGAGUU: 1.21
UCCUGUGCUACACAUCGUAUGUACCGAAUCGGGGAAAAAAGGGAAAAAAGGAAAAAAGGGAAAGUAUUAUGUUACGCCGUUCGGAUCUGC: 0.0575

For quick reference, copied from above (block 1):
AAGGCAAT: -0.198
CGGTTTAA: 0.181
CACGAGTG: -0.111
AGATAGAA: -0.186
ACCATAGA: -0.118
CCCTAGCA: -0.171
CGAGCAAC: 0.0795
GGTTCCAA: 0.0888
CACGAAGG: -0.0164
ATTATCAC: -0.0199
GGGTAACA: -0.0459
